Assay results pooled from the literature.
Lines come from different studies, so protocols differ.

Structure (SMILES) | test | test system | conditions | concentration
Cc1ncsc1-c1ccc(CNC(=O)[C@@H]2C[C@@H](O)CN2C(=O)[C@@H](NC(=O)COCC(C)(COCCOCCOCCNC(=O)C[C@@H]2N=C(c3ccc(Cl)cc3)c3c(sc(C)c3C)-n3c(C)nnc32)COCCOCCOCCNC(=O)C[C@@H]2N=C(c3ccc(Cl)cc3)c3c(sc(C)c3C)-n3c(C)nnc32)C(C)(C)C)cc1 |  | male C57BL/6 mouse, plasma | subcutaneous, 5 mg/kg, 8 h, single dose | 1960 ng/mL
CC(C)n1ncc2c(C(=O)NC[C@@H](C)N)cc(C3CC3)nc21 |  | female BALB/c mouse, plasma | intraperitoneal, 30 mg/kg, 30 min | 1360 ng/mL
CC(C)(O)c1ccc(N2Cc3c(ccnc3-c3ccc(F)cc3OCC(F)(F)F)C2=O)cc1 |  | male C57BL/6 mouse, plasma | oral, 3 mg/kg, 6 h | 910 ng/mL
C=CC(=O)N1CC2C(=O)N(CCN(C)C)c3c(c4cc(Cl)c(-c5c(O)cccc5F)nc4n(-c4c(C)ccnc4C(C)C)c3=O)N2CC1C (centres unmarked) |  | mouse, brain | oral, 30 mg/kg, 4 h | 9.17 ng/mL
CC(C)(C)C(=O)Nc1ccc2[nH]c(CN3CCC(N(CCCN4CCOCC4)CC4OC(n5cnc6c(N)ncnc65)C(O)C4O)CC3)nc2c1 (centres unmarked) |  | male Sprague-Dawley rat, plasma | intravenous, 20 mg/kg, 45 min | 667 ng/mL
[2H]C([2H])(N)C([2H])([2H])NC(=O)c1cc(C2CC2)nc2c1cnn2C(C)C |  | female BALB/c mouse, plasma | intraperitoneal, 50 mg/kg, 15 min | 2250 ng/mL
O=C1CCC(N2Cc3cc(C(=O)O)c(F)cc3C2=O)C(=O)N1 (centres unmarked) |  | male CD-1 mouse, plasma | intravenous, 1 mg/kg, 30 min | 136 ng/mL
CC[C@H](C)[C@@H]1NC(=O)[C@H](Cc2ccc(O)cc2)NC(=O)CCCSC[C@@H](C(=O)N(CC(=O)N[C@@H](CC(C)C)C(=O)NCC(N)=O)Cc2ccc(F)cc2)NC(=O)[C@H](CC(N)=O)NC(=O)[C@H](CCC(N)=O)NC1=O | LC-MS/MS | human, urine | intravenous, 20 µg, 2 h | 0.151 ng/mL

Repeated from above:
Structure (SMILES) | test | test system | conditions | concentration
Cc1ncsc1-c1ccc(CNC(=O)[C@@H]2C[C@@H](O)CN2C(=O)[C@@H](NC(=O)COCC(C)(COCCOCCOCCNC(=O)C[C@@H]2N=C(c3ccc(Cl)cc3)c3c(sc(C)c3C)-n3c(C)nnc32)COCCOCCOCCNC(=O)C[C@@H]2N=C(c3ccc(Cl)cc3)c3c(sc(C)c3C)-n3c(C)nnc32)C(C)(C)C)cc1 |  | male C57BL/6 mouse, plasma | subcutaneous, 5 mg/kg, 8 h, single dose | 1960 ng/mL
